Results gathered from unrelated publications.
Compare with care: the assays were run in different laboratories. Numbers after ± are the reported error.

Compound | host | medium | route | dose | time | tissue uptake
CC(C)Cc1ccc(C(C)C(=O)N[C@@H](CCCCNC(=O)CCOCCOCCOCCOCCOCCOCCNC(=O)CN2CCN(CC(=O)[O-])CCN(CC(=O)[O-])CCN(CC(=O)[O-])CC2)C(=O)Nc2cccc3c(C(=O)NCC(=O)N4CC(F)(F)C[C@H]4C#N)ccnc23)cc1.[177Lu+3] (some centres unmarked) | mouse, U-87 MG tumour xenograft | brain |  |  | 4 h | 0.3 ± 0.1 %ID/g
O=C(O)CCCOc1ccc([18F])cc1-c1cc(-c2ccccc2C(F)(F)F)n(-c2ccccc2)n1 | mouse | bladder | intravenous | dose not given | 360 min | 0.15 ± 0.12 %ID/g
N#C[C@@H]1CC(F)(F)CN1C(=O)CNC(=O)c1ccnc2c(NC(=O)[C@H](CCCCNC(=O)CCOCCOCCOCCOCCOCCOCCNC(=O)CN3CCN(CC(=O)[O-])CCN(CC(=O)[O-])CCN(CC(=O)[O-])CC3)NC(=O)CCCc3ccc(I)cc3)cccc12.[177Lu+3] | mouse, U-87 MG tumour xenograft | spleen |  |  | 1 h | 5.37 ± 2.4 %ID/g
COc1cccc(OC)c1-c1cc(C(=O)NC2(C(=O)O)C3CC4CC(C3)CC2C4)nn1-c1ccc(C(=O)NCCNC(=O)[C@H](CCCCNC(=O)[C@H](CC(C)C)NC(=O)C2OC2C(=O)O)NC(=O)CN2CCN(CC(=O)[O-])CCN(CC(=O)[O-])CCN(CC(=O)[O-])CC2)cc1C(C)C.[177Lu+3] (mixture of isomers) | mouse, HT-29 xenograft | kidney |  |  | 72 h post injection | 2.39 %ID/g
N#C[C@@H]1CC(F)(F)CN1C(=O)CNC(=O)c1ccnc2c(NC(=O)CCOCCOCCOCCOCCOCCOCCNC(=O)[C@H](CCCCNC(=O)CN3CCN(CC(=O)[O-])CCN(CC(=O)[O-])CCN(CC(=O)[O-])CC3)NC(=O)CCCc3ccc(I)cc3)cccc12.[177Lu+3] | mouse, U-87 MG tumour xenograft | brain |  |  | 48 h | 0.01 ± 0.01 %ID/g
[11CH3]N1CCC(NC(=O)c2cc(-c3c(O)cc(O)cc3Oc3ccc([N+](=O)[O-])cc3)on2)CC1 | Wistar rat, female, healthy | blood | intravenous |  | 60 min | 2.6 ± 0.8 %ID
O=C(NCC1OC2CCC=CCCC2O1)c1ccc([18F])nc1 (centres unmarked) | healthy female BALB/c nude mice | skin | intravenous | 7.4 MBq per mouse | 120 min | 0.6 ± 0.3 %ID/g
[123I]c1ccc2nc(-c3ccc(-n4ccnn4)nc3)cn2c1 | Wistar rat, male | adrenals | intravenous | 4 MBq | 5 min | 19.9 ± 7.46 %ID/g
N#C[C@@H]1CC(F)(F)CN1C(=O)CNC(=O)c1ccnc2c(NC(=O)[C@@H](N)CCCCNC(=O)CCOCCOCCOCCOCCOCCOCCNC(=O)CN3CCN(CC(=O)[O-])CCN(CC(=O)[O-])CCN(CC(=O)[O-])CC3)cccc12.[177Lu+3] | mouse, U-87 MG tumour xenograft | spleen |  |  | 24 h | 0.08 ± 0.01 %ID/g
COc1cccc(OC)c1-c1cc(C(=O)NC2(C(=O)O)C3CC4CC(C3)CC2C4)nn1-c1ccc(C(=O)N(C)CCOCCN(C)C(=O)[C@H](CCCCNC(=O)[C@H](CC(C)C)NC(=O)C2OC2C(=O)O)NC(=O)CN2CCN(CC(=O)[O-])CCN(CC(=O)[O-])CCN(CC(=O)[O-])CC2)cc1C(C)C.[177Lu+3] (mixture of isomers) | mouse, HT-29 xenograft | lung |  |  | 4 h post injection | 1.3 %ID/g
CCCC[C@H](NC(=O)CCCCCCCNC(=O)CN1CCN(CC(=O)O)CCN(CC(=O)O)CC1)C(=O)N[C@H]1CC(=O)NCCCC[C@@H](C(N)=O)NC(=O)[C@H](Cc2c[nH]c3ccccc23)NC(=O)[C@H](CCCNC(=N)N)NC(=O)[C@@H](Cc2ccccc2)NC(=O)[C@H](Cc2c[nH]cn2)NC1=O [fluorine-18 labelled] | C57 mice B16-F10 melanoma | blood | intravenous | 0.37 MBq | 2 h | 0.21 ± 0.06 %ID/g
Cc1cc(C)n(CCN(CCN)CCCCCCNC(=O)[C@@H](N)Cc2c[nH]cn2)n1.[99Tc+].[C-]#[O+].[C-]#[O+].[C-]#[O+] | BALB/c nude mice, MCF7 xenograft | tumor | intravenous |  | 4 h | 0.27 ± 0.06 %IA/g
O=C(NCC1OC2CCC=CCCC2O1)c1ccc(COCCOCCOCC[18F])cc1 (centres unmarked) | healthy female BALB/c nude mice | brain | intravenous | 7.4 MBq per mouse | 120 min | 1.9 ± 0.1 %ID/g
COc1cccc(OC)c1-c1cc(C(=O)NC2(C(=O)O)C3CC4CC(C3)CC2C4)nn1-c1ccc(C(=O)N(C)CCCN(C)CCCN(C)C(=O)[C@H](CCCCNC(=O)[C@H](CC(C)C)NC(=O)C2OC2C(=O)O)NC(=O)CN2CCN(CC(=O)[O-])CCN(CC(=O)[O-])CCN(CC(=O)[O-])CC2)cc1C(C)C.[177Lu+3] (mixture of isomers) | mouse, HT-29 xenograft | lung |  |  | 168 h post injection | 0.9 %ID/g

For quick reference, copied from above:
Compound | host | medium | route | dose | time | tissue uptake
CCCC[C@H](NC(=O)CCCCCCCNC(=O)CN1CCN(CC(=O)O)CCN(CC(=O)O)CC1)C(=O)N[C@H]1CC(=O)NCCCC[C@@H](C(N)=O)NC(=O)[C@H](Cc2c[nH]c3ccccc23)NC(=O)[C@H](CCCNC(=N)N)NC(=O)[C@@H](Cc2ccccc2)NC(=O)[C@H](Cc2c[nH]cn2)NC1=O [fluorine-18 labelled] | C57 mice B16-F10 melanoma | blood | intravenous | 0.37 MBq | 2 h | 0.21 ± 0.06 %ID/g
N#C[C@@H]1CC(F)(F)CN1C(=O)CNC(=O)c1ccnc2c(NC(=O)CCOCCOCCOCCOCCOCCOCCNC(=O)[C@H](CCCCNC(=O)CN3CCN(CC(=O)[O-])CCN(CC(=O)[O-])CCN(CC(=O)[O-])CC3)NC(=O)CCCc3ccc(I)cc3)cccc12.[177Lu+3] | mouse, U-87 MG tumour xenograft | brain |  |  | 48 h | 0.01 ± 0.01 %ID/g
